Measurements from different studies.
Numbered parts are unrelated; each lists some results of a single study. Several values in a cell are separate wells, animals, samples, runs or records.
Chain of UniProt Q9UIK4 (whole entry, looked up): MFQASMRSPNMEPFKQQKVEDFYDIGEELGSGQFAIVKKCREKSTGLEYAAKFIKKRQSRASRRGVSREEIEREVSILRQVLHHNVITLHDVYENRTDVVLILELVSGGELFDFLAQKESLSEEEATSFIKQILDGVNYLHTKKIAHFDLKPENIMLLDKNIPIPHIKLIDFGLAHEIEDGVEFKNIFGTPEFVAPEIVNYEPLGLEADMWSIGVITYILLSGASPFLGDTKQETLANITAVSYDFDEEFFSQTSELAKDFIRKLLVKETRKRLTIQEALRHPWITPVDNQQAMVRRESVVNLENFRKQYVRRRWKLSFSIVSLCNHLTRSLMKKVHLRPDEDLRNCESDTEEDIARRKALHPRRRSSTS
Chain of UniProt P49840 (whole entry, looked up): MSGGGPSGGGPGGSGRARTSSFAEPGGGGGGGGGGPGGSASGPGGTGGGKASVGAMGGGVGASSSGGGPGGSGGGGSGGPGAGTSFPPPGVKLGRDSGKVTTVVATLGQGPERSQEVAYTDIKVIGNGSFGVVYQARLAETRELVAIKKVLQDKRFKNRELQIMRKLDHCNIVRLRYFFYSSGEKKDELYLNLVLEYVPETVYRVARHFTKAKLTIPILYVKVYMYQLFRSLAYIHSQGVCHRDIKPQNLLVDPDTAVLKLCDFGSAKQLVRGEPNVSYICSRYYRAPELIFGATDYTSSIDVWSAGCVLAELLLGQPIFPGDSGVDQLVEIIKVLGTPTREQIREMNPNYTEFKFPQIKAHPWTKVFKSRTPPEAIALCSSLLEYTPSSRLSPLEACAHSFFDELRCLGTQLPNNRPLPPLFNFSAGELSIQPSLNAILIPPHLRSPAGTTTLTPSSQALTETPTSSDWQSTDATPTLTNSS
Chain of UniProt P50613 (whole entry, looked up): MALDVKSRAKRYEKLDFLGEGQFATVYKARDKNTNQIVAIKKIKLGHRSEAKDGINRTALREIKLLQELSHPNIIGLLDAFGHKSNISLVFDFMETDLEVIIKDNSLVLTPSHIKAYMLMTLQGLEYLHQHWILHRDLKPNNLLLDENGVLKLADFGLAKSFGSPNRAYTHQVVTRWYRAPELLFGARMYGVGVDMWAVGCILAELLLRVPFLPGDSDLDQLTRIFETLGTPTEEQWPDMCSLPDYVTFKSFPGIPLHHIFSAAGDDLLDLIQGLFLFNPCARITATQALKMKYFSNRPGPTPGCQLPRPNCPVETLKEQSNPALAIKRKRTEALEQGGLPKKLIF
Chain of UniProt O94768 (whole entry, looked up): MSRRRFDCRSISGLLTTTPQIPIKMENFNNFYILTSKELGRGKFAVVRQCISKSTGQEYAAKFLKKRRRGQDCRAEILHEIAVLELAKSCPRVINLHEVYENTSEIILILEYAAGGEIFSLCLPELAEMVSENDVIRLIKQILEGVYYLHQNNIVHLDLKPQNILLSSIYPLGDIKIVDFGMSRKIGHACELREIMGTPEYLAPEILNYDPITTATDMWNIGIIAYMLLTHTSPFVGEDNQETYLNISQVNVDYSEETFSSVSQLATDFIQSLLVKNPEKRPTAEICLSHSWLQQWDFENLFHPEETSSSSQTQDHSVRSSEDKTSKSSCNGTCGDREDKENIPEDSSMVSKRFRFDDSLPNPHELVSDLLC
Chain of UniProt P36894 (whole entry, looked up): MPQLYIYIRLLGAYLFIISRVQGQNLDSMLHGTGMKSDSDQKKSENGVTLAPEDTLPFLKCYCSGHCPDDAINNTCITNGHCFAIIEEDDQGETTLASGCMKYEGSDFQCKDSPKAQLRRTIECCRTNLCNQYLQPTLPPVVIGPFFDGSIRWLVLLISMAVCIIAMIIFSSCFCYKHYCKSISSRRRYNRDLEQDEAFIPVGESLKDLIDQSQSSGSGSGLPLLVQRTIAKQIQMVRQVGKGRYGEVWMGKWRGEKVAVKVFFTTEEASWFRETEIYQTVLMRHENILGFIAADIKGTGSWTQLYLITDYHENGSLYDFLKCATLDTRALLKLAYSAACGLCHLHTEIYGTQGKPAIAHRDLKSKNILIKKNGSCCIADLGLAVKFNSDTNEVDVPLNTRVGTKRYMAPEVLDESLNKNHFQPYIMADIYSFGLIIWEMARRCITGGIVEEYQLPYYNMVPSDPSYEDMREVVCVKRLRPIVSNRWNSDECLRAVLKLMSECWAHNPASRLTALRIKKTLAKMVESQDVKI
Chain of UniProt P51817 (whole entry, looked up): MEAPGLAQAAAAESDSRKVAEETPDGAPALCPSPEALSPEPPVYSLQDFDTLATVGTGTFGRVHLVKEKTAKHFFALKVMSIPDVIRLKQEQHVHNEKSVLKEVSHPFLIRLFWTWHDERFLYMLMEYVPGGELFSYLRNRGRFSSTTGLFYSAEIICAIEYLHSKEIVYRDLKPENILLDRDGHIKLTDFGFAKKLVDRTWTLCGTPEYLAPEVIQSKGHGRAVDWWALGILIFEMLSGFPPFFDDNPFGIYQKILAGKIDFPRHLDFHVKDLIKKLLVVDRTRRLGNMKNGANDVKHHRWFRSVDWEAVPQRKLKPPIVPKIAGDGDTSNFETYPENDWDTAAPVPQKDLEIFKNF

Block 1 — cell line: mouse MPNST tumor cells; method: high-content nuclear imaging; measured: cell number; concentration: 10 µM; time: 12 h; notes: mean of 2 replicates; baseline: plate mean; reading: higher = more cells; measurement: nuclei count
CC(C)c1cc(C(C)C)c(CC(=O)NS(=O)(=O)Oc2c(C(C)C)cccc2C(C)C)c(C(C)C)c1: 2.1 z-score
COc1cc(Nc2c(C#N)cnc3cc(OCCCN4CCN(C)CC4)c(OC)cc23)c(Cl)cc1Cl: -4.69 z-score
Cc1cc2c(cc1C(F)(F)F)N(C(=O)Nc1ccc(Oc3cccnc3C)nc1)CC2: 2.19 z-score
CC1(C)O[C@@H]2C[C@H]3[C@@H]4C[C@H](F)C5=CC(=O)CC[C@]5(C)[C@H]4[C@@H](O)C[C@]3(C)[C@]2(C(=O)CO)O1: 2.55 z-score
CC(C)c1ccc(CC(=O)N2CCCC(c3cccc(OC(C)(C)C(=O)O)c3)C2)cc1 (stereo not drawn): -0.127 z-score

Block 2 — host: mouse; sample: microsomes or S9; concentration: 2 µM; time: 0.5 h; measurement: remaining compound
Cc1ccc(C(OC(=O)CC(C)C)c2cc(=O)cc[nH]2)cc1 (stereo not drawn): 0.0103%
CS(=O)(=O)N1CCN(CCCOc2ccc3c(c2)C(=O)C(c2cnc4ccccc4c2)=C3c2ccc(F)cc2F)CC1: 69.8%
CC(C)(C)CNCCn1c(=S)[nH]c2c(Cl)nccc21: > 99%
COC(=O)c1ccc(C2NN(C)C3C(=O)N(C(C)C)C(=O)C23)cc1 (stereo not drawn): 67.6%
Cc1ccc(NCc2nc3n(n2)CCCCC3)c(C)c1: 1.28%

Block 3 — read-out: enzyme activity; action: inhibitor; concentration: 77 µM; baseline: untreated; measurement: remaining activity
Target: DNA polymerase theta, ATPase domain (POLQ, Homo sapiens, UniProt O75417)
Chain of UniProt O75417 (whole entry, unmodified, looked up): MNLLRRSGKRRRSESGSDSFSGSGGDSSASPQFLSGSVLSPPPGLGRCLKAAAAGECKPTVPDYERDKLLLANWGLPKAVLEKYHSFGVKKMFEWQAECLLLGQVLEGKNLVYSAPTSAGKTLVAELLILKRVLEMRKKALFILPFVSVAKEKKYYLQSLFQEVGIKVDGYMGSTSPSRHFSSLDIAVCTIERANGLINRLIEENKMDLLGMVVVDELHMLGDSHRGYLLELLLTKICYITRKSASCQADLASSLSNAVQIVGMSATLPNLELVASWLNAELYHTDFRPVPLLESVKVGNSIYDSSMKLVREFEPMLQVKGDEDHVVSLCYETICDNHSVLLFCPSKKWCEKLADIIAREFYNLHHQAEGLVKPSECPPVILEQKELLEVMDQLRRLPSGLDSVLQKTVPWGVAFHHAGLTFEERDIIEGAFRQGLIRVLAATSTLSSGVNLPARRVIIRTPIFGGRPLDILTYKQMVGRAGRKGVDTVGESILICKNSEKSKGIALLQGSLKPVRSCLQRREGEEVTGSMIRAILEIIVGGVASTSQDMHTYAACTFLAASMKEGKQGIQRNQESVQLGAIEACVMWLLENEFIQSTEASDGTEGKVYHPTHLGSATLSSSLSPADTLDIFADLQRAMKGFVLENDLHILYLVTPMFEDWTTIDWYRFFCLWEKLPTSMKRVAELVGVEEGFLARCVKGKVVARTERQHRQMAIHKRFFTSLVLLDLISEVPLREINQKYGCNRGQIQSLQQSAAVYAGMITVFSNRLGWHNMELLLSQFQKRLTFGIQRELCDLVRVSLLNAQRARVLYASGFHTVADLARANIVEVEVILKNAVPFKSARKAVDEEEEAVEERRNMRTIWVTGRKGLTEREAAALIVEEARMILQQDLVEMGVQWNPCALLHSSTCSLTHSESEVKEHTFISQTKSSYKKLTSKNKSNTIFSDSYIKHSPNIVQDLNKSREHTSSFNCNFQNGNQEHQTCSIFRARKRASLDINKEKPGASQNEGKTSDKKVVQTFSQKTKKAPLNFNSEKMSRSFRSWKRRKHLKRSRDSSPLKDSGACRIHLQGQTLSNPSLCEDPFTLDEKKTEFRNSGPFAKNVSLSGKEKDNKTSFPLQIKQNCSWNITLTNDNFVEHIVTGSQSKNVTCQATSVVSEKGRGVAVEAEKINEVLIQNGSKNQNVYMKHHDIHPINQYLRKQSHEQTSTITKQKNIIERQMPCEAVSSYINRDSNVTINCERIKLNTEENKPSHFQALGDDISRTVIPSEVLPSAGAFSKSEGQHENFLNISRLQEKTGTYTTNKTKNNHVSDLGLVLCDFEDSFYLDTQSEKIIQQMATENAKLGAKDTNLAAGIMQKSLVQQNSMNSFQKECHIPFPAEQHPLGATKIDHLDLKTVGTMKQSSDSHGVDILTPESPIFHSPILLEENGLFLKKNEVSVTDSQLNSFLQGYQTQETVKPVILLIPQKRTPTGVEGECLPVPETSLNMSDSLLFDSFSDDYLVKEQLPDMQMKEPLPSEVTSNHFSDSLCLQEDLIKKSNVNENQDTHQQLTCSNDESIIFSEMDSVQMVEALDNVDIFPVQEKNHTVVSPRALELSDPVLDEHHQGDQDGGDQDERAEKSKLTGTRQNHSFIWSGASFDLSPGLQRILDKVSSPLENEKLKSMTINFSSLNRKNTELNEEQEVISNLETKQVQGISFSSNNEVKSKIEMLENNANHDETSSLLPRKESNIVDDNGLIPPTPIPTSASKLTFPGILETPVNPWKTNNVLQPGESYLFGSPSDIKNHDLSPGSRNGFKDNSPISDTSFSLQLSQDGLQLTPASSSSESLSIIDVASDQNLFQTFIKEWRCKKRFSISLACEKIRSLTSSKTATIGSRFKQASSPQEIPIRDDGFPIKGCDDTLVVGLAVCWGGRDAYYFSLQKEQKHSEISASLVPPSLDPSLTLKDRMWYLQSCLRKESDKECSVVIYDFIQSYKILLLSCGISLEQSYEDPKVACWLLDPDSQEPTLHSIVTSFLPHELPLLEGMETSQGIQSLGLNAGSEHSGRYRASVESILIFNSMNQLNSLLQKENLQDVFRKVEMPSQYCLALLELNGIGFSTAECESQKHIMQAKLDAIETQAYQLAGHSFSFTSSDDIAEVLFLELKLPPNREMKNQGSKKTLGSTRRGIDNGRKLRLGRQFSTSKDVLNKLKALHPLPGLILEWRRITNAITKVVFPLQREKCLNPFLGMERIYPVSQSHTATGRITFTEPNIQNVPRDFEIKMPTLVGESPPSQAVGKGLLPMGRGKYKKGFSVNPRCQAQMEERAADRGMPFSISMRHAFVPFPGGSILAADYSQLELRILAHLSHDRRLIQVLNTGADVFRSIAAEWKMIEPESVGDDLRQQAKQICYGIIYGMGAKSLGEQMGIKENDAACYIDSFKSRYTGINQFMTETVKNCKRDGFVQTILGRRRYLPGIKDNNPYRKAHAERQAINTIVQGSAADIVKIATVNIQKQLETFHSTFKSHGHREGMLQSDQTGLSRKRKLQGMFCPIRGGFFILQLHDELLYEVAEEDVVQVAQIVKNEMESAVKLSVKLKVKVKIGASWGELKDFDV
Cc1ccccc1/C=C/C1=NCCN1: 105%
CC[n+]1c(/C=C/C=C2/N(C)c3ccccc3C2(C)C)sc2ccccc21: 88.2%
CCc1cc(C(N)=S)ccn1: 93.4% and 100%

Block 4 — method: competition with immobilised ligand; concentration: 1 µM; measurement: remaining binding
Structure (SMILES): CN([C@@H]1CCc2c(CC(=O)O)c3ccccc3n2C1)S(=O)(=O)c1ccc(F)cc1
PRKACB (Homo sapiens, UniProt P22694); cell-free assay: 100%
GSK3A (Homo sapiens, UniProt P49840); cell-free assay: 90%
BMPR1A (Homo sapiens, UniProt P36894); binding: 100%
RET (Homo sapiens, UniProt P07949, V804M); cell-free assay: 98%
DAPK2 (Homo sapiens, UniProt Q9UIK4); cell-free assay: 100%
EGFR (Homo sapiens, UniProt P00533, G719C); cell-free assay: 100%
ACVR2B (Homo sapiens, UniProt Q13705); cell-free assay: 98%
CDK7 (Homo sapiens, UniProt P50613); cell-free assay: 82%
MERTK (Homo sapiens, UniProt Q12866); cell-free assay: 100%
PIK3CA (Homo sapiens, UniProt P42336, E545K); cell-free assay: 86%
MAP4K3 (Homo sapiens, UniProt Q8IVH8); cell-free assay: 100%
STK17B (Homo sapiens, UniProt O94768); cell-free assay: 85%
EPHA2 (Homo sapiens, UniProt P29317); cell-free assay: 100%

Single results of other studies
C[C@H]1CC[C@H](n2c3cnccc3c3cnc(Nc4ccc5c(n4)CCN(C(=O)CO)C5)nc32)CC1 — receptor occupancy (cAMP-dependent protein kinase catalytic subunit PRKX (PRKX, Homo sapiens, UniProt P51817); 1 µM): -16.1%
